{"data": "Experimental data pooled from the literature", "target": "Serine/threonine-protein kinase DCLK1 (DCLK1, Homo sapiens, UniProt O15075)", "Sequence (O15075 1-740, as in one of the studies)": "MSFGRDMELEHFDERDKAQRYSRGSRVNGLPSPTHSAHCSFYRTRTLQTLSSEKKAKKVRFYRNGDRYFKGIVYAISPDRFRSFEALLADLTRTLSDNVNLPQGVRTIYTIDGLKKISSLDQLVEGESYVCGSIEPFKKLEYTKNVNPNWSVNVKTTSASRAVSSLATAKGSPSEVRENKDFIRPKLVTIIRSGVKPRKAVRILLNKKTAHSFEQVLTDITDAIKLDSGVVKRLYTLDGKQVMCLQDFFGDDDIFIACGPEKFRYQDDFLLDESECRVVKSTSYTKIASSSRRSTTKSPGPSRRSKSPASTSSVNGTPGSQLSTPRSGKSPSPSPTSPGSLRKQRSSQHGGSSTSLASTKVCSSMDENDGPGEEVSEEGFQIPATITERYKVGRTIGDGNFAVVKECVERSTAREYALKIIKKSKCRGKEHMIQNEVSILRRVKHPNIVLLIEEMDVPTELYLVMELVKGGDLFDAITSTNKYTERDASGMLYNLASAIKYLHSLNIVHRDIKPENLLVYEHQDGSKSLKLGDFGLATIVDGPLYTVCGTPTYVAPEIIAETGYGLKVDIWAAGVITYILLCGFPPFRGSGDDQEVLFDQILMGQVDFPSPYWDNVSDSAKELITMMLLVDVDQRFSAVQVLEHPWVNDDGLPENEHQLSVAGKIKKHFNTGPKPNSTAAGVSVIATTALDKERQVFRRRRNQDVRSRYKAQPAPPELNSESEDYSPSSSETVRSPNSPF"}
{"Compound": "NC(=O)C[C@H]1CCc2sc3ncnc(O[C@H]4CC[C@H](N5CCOCC5)CC4)c3c21", "assay": "enzyme activity, inhibitor", "conditions": "10 µM", "endpoint": "inhibition", "value": "1%"}
{"Compound": "CNC(=O)C1CCN(c2cc(C)c(F)cc2NC(=O)c2ccc(-c3cc(O)ccc3C)c(C)c2)CC1", "assay": "binding, competition with immobilised ligand", "conditions": "1 µM", "endpoint": "remaining binding", "value": "97%"}
{"Compound": "CC(=O)N1c2ccc(-c3ccc(CNC(=O)c4cn5cc(-c6cnc(N)nc6)nc(N6CCOCC6)c5n4)cc3)cc2CC[C@@H]1C", "assay": "KINOMEscan", "conditions": "10 µM", "endpoint": "remaining binding", "value": "100%"}
{"Compound": "COc1cc(Nc2nc(C)cc(-c3cnn4nc(OC)ccc34)n2)cc(C(F)(F)F)c1", "assay": "inhibitor", "conditions": "1 µM, DCAMKL1", "how to read": "baseline: control", "endpoint": "remaining activity", "value": "69%"}
{"Compound": "CN1CCN(Cc2ccc(NC(=O)c3cccc(C#Cc4cnc(N)c5ncccc45)c3)cc2C(F)(F)F)CC1", "assay": "cell-free assay, competition with immobilised ligand", "conditions": "50 nM", "endpoint": "remaining binding", "value": "63%"}
{"Compound": "C=C1CCCCCCCCCC(CO)C1=O (stereo not drawn)", "assay": "cell-free assay, competition with immobilised ligand", "conditions": "10 µM", "endpoint": "remaining binding", "value": "100%"}
{"Compound": "CNC1C[S+]2CC[S+]3CC[S+](C1)[Ru-4]321([N]=C=S)[n]2c3ccc(OC)cc3c3c4c(c5cc(F)c[n+]1c5c32)C(=O)NC4=O (stereo not drawn)", "assay": "KinomeScan", "conditions": "0.1 µM", "how to read": "baseline: untreated", "endpoint": "remaining binding", "value": "52%"}
{"Compound": "Nc1ncc2c(n1)-c1c([nH]c3ccc(C4=CCOCC4)cc13)CCC2", "assay": "binding, competition with immobilised ligand", "conditions": "1 µM", "endpoint": "remaining binding", "value": "78%"}
{"Compound": "CCN1CCN(Cc2ccc(C(=O)Nc3ccc(C)c(NCc4cnc5[nH]ccc5c4OC)c3)cc2C(F)(F)F)CC1", "assay": "binding, competition with immobilised ligand", "conditions": "1 µM", "endpoint": "remaining binding", "value": "75%"}
{"Compound": "Cc1cnc2nc1Nc1cccc(c1)COC/C=C/COCc1cc(ccc1OCCN1CCOCC1)N2", "assay": "cell-free assay", "conditions": "0.1 µM", "endpoint": "remaining signal", "value": "95%"}
{"Compound": "O=C(Cc1ccc(OCc2ccccc2)cc1)NC1(C(=O)O)CCN(C(=O)c2ccc(-c3cccc(Cl)c3)cc2)CC1", "assay": "enzyme activity, inhibitor", "conditions": "10 µM", "endpoint": "activity vs control", "value": "109%"}
{"Compound": "CN1CCN(Cc2ccc(-c3ccc(CO[C@H]4CCC[C@@H]4NC(=O)c4cc(-c5cnn(C)c5)cnc4N)cc3)cc2)CC1", "assay": "enzyme activity, inhibitor", "conditions": "0.1 µM", "endpoint": "inhibition", "value": "9%"}
{"note": "For quick reference, copied from above:"}
{"Compound": "CNC(=O)C1CCN(c2cc(C)c(F)cc2NC(=O)c2ccc(-c3cc(O)ccc3C)c(C)c2)CC1", "assay": "binding, competition with immobilised ligand", "conditions": "1 µM", "endpoint": "remaining binding", "value": "97%"}
